# Measurements gathered from unrelated publications.
# Parts stem from different laboratories: compare values within a part only. Changes are numbered by the printed parent chain.

# Sample 1 — technique: DHFR PCA, deep sequencing; sample: yeast; added: (+)-ABA 0 µM; reference: wild-type fitted maximum; reading: higher = stronger binding
# Target: ABI1, truncated, D143A, DHFR fusion (Arabidopsis thaliana)
# Setting: methotrexate growth selection, single substitutions
# Starting sequence: PYL1, truncated, DHFR fusion (Arabidopsis thaliana); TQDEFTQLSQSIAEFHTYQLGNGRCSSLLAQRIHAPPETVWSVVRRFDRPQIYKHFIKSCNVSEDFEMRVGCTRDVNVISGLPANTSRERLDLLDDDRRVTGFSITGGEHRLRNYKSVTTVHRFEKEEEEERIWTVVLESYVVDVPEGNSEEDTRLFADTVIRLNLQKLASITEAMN; partner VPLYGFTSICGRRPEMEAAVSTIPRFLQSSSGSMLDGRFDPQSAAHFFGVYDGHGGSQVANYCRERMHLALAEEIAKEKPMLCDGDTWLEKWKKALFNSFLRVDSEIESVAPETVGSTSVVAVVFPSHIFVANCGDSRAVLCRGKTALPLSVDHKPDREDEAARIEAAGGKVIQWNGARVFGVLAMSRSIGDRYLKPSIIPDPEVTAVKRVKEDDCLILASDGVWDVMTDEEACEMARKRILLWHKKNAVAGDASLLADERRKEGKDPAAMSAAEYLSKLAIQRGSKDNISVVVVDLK
Variant,relative binding score [%]
V136C,-3.27
D159Y,1.32
R99I,-2.24
L112Q,1.16
E64Y,0.476
L28F,0.778
T6I,40.3
D97F,-3.15
A158H,20.9
R111M,25.7
E147M,2.23
V43S,-1.51
V161I,57.4
E64S,28.2
F66R,-0.106
V100N,0.434
L138H,-4.13

# Sample 2 — target: CCNB2, cyclin fold, Cln2 fusion (human); technique: yeast growth competition, sequencing; sample: yeast; setting: weak parent motif; reference: not given; reading: higher = stronger binding
# Starting sequence: PKN2 docking peptide (human); VSAVRKLDFSDTM; partner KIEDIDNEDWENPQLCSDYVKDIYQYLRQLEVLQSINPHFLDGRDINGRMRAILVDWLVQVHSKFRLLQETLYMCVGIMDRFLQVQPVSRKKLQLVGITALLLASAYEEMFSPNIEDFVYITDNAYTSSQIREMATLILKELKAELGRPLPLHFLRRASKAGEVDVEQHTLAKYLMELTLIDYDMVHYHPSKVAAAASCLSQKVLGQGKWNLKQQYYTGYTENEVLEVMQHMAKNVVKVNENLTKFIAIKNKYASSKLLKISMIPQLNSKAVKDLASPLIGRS
Variant,normalised enrichment score
VSAVRKLDMSDTM [F9M],0.222
VSAVCKLDFSDTM [R5C],0.486
VSATRKLDFSDTM [V4T],0.397
VSAVRKLDFSMTM [D11M],-0.152
VSAVRKLDFSTTM [D11T],0.196
VSAVRKLDFPDTM [S10P],0.156
VSAVRKLDFIDTM [S10I],-0.0191
VSAVRKLDFSGTM [D11G],0.379
VSAVRKLDFSCTM [D11C],0.35
VTAVRKLDFSDTM [S2T],0.601
VSLVRKLDFSDTM [A3L],2.32
VSAVFKLDFSDTM [R5F],-0.48
VWAVRKLDFSDTM [S2W],0.573
VGAVRKLDFSDTM [S2G],0.508
VSAVPKLDFSDTM [R5P],-0.212
VNAVRKLDFSDTM [S2N],0.504
VSAVRKLDCSDTM [F9C],0.335
VSAVRKPDFSDTM [L7P],-0.0262
VSAVRKLDKSDTM [F9K],0.186
VSAIRKLDFSDTM [V4I],0.177
VSAVRKLDLSDTM [F9L],0.00315
VSADRKLDFSDTM [V4D],-0.287
VSAWRKLDFSDTM [V4W],0.212
VSAVRKHDFSDTM [L7H],0.3
VSAVRKEDFSDTM [L7E],-0.21

# Sample 3 — technique: aptamer microarray, sandwich; form: DNA with 2'F-ANA; sample: in vitro; tested at: 200 nM; added: Cy3 exosite-II aptamer, 400 nM; reading: higher = stronger binding; strand: GGTTGGTGTGGTTGG
# Target: Prothrombin, mature alpha-thrombin (F2, Homo sapiens, UniProt P00734)
# Setting: whole 15-mer aptamer, many near background
Modification,mean fluorescence intensity [a.u.]
2'F-ANA at 4 5 6 7 8 11 13 15,50.7
2'F-ANA at 1 2 3 6 8 9 11 12,367
2'F-ANA at 1 2 4 6 8 11 12 13 14 15,249
2'F-ANA at 4 5 6 8 11 13,51.1
2'F-ANA at 1 2 3 4 8 9 11 13 14 15,60.7
2'F-ANA at 2 4 5 6 7 9 11 14,48.2
2'F-ANA at 4 5 6 7 11 12 13,73.4
2'F-ANA at 3 4 5 7 9 10 12 13 15,58.9
2'F-ANA at 1 2 3 6 8 11 12 15,345
2'F-ANA at 1 2 3 7 9 10 11 12 13 14 15,53.3
2'F-ANA at 1 2 3 14,99.2
2'F-ANA at 1 2 3 6 7 8 9 10 12 15,87.2
2'F-ANA at 2 3 4 6 7 8 10 12 13 15,252
2'F-ANA at 1 3 4 7 14 15,75.6
2'F-ANA at 2 3 4 5 8 10 11 12,57.4
2'F-ANA at 4 5 8 10 11 12 14 15,154
2'F-ANA at 2 3 5 6 7 9 11 12 13,109
2'F-ANA at 1 2 3 4 6 11 13 14,84.1
2'F-ANA at 2 5 6 8 9 14,61.3
2'F-ANA at 1 2 3 6 11 14,92
2'F-ANA at 2 3 6 7 10 11 12 13 15,324
2'F-ANA at 4 10 11 13,69.8
2'F-ANA at 2 3 4 6 7 8 9 11 12 15,657
2'F-ANA at 4 5 6 7 9 11 12 14,82.1
2'F-ANA at 1 8 9 10 11 12 14 15,51.1

# Sample 4 — target: CREB3L4, bZIP domain (human); technique: DHFR protein complementation; sample: yeast; reference: wild-type JUN-FOS pair; reading: higher = stronger binding
# Setting: single substitutions, most at no-binding floor
# Starting sequence: JUN, bZIP domain (human); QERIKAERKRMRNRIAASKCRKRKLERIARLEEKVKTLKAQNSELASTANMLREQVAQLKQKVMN; partner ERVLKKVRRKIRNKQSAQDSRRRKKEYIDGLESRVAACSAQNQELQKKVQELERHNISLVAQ
Variant,binding fitness [natural log]
I28D,-1.51
Q41L,-1.52
Q55F,-1.36
S43C,-1.36
E54R,-1.46
A57M,-1.6
L45P,-1.56
S47P,-1.56
E44V,-1.51
N42P,-1.52
A40P,-1.51
A49E,-1.34
L45C,-1.43
L38C,-1.56
A29V,-1.54
T37A,-1.4
R30C,-1.44
T48E,-1.36
L52I,-1.48

# Sample 5 — technique: RNA Bind-n-Seq; form: RNA; sample: in vitro; tested at: 20 nM; setting: 6-mer, flanks averaged, single round; added: 150 mM KCl; reference: input library; reading: higher = stronger binding
# Target: TAR DNA-binding protein 43, full length, His tag (TARDBP, Homo sapiens, UniProt Q13148, residues 1-414)
Strand,6-mer enrichment (R)
CCACCU,0.609
GUUCAC,0.618
GCUUGC,0.808
UUACCC,0.618
AGCCAC,0.702
GCUGCC,0.836
GCUCAA,0.673
CUAAGU,0.632
ACUCAA,0.604
GACGGA,1.55
UAACAU,0.626
AACGAA,0.698
GGUGGG,9.02
UCGCGA,0.771
AGGCGU,1.36
UUCAUC,0.518
UUCGUC,0.593
CGCGCU,0.789
CAAACU,0.595

# Sample 6 — technique: protein binding microarray; form: double-stranded DNA, one strand shown; sample: in vitro; tested at: not given; reference: not given; reading: higher = stronger binding
# Target: Histone acetyltransferase KAT6A, winged helix 2, GST fusion (KAT6A, Homo sapiens, UniProt Q92794, residues 85-181)
# Setting: 8-mer, flanks averaged, mean of 2 arrays, mostly near background
# Residues (chain): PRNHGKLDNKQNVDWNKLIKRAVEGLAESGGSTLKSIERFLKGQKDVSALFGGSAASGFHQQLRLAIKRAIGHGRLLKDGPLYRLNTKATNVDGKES
Strand,E-score
ACTGAACT,-0.17
CAAGTGTA,-0.0857
GATGATGA,-0.0845
CAATCGTG,-0.148
CACGCGTG,0.297
AGGCTTGA,0.0304
AATTCGCA,0.117
GAACGTTA,-0.235
GGATGCAA,0.0966
GTTCCTTA,0.0947
AGAACATC,0.0786
AATTTCGG,0.0201
GGATGTGA,-0.0625
GGGAAACA,0.106
GACACTCC,0.0952
AATCACAA,-0.19
AAATACCA,-0.0779
GACGGACC,0.0771
ATACGATA,-0.113
CTTCCTTC,-0.0818
CGACGCGC,0.281
AAGAGTTA,-0.0657
CGTGCCTA,-0.0894
CAAGTGTG,0.0268
ATTCAGCA,0.111

# A few entries again (sample 4):
Variant,binding fitness [natural log]
L45P,-1.56
S47P,-1.56
E44V,-1.51
N42P,-1.52
A40P,-1.51
A49E,-1.34
L45C,-1.43
